{"data": "Published values gathered from unrelated publications", "note": "Each line is one published result; not all experiments were run side by side.", "UniProt P28222, sequence (whole entry, looked up)": "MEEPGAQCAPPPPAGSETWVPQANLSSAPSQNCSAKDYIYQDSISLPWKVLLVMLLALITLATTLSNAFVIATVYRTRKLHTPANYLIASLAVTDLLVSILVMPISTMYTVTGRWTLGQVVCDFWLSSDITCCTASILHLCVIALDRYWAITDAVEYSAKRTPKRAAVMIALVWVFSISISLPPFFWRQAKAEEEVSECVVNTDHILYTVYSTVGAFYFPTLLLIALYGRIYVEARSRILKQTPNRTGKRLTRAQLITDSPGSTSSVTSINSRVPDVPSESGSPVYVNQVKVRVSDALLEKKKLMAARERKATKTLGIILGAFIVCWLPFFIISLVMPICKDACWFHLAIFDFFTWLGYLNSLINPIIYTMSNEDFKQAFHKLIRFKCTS", "UniProt P08246, sequence (whole entry, looked up)": "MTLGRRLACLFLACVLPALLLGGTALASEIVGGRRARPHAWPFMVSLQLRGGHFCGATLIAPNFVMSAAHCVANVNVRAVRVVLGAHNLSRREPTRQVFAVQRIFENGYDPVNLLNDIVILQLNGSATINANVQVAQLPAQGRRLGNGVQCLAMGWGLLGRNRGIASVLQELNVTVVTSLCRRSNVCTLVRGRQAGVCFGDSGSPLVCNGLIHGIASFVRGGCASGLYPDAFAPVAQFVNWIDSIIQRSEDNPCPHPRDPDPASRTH", "UniProt P03303, sequence (whole entry, looked up)": "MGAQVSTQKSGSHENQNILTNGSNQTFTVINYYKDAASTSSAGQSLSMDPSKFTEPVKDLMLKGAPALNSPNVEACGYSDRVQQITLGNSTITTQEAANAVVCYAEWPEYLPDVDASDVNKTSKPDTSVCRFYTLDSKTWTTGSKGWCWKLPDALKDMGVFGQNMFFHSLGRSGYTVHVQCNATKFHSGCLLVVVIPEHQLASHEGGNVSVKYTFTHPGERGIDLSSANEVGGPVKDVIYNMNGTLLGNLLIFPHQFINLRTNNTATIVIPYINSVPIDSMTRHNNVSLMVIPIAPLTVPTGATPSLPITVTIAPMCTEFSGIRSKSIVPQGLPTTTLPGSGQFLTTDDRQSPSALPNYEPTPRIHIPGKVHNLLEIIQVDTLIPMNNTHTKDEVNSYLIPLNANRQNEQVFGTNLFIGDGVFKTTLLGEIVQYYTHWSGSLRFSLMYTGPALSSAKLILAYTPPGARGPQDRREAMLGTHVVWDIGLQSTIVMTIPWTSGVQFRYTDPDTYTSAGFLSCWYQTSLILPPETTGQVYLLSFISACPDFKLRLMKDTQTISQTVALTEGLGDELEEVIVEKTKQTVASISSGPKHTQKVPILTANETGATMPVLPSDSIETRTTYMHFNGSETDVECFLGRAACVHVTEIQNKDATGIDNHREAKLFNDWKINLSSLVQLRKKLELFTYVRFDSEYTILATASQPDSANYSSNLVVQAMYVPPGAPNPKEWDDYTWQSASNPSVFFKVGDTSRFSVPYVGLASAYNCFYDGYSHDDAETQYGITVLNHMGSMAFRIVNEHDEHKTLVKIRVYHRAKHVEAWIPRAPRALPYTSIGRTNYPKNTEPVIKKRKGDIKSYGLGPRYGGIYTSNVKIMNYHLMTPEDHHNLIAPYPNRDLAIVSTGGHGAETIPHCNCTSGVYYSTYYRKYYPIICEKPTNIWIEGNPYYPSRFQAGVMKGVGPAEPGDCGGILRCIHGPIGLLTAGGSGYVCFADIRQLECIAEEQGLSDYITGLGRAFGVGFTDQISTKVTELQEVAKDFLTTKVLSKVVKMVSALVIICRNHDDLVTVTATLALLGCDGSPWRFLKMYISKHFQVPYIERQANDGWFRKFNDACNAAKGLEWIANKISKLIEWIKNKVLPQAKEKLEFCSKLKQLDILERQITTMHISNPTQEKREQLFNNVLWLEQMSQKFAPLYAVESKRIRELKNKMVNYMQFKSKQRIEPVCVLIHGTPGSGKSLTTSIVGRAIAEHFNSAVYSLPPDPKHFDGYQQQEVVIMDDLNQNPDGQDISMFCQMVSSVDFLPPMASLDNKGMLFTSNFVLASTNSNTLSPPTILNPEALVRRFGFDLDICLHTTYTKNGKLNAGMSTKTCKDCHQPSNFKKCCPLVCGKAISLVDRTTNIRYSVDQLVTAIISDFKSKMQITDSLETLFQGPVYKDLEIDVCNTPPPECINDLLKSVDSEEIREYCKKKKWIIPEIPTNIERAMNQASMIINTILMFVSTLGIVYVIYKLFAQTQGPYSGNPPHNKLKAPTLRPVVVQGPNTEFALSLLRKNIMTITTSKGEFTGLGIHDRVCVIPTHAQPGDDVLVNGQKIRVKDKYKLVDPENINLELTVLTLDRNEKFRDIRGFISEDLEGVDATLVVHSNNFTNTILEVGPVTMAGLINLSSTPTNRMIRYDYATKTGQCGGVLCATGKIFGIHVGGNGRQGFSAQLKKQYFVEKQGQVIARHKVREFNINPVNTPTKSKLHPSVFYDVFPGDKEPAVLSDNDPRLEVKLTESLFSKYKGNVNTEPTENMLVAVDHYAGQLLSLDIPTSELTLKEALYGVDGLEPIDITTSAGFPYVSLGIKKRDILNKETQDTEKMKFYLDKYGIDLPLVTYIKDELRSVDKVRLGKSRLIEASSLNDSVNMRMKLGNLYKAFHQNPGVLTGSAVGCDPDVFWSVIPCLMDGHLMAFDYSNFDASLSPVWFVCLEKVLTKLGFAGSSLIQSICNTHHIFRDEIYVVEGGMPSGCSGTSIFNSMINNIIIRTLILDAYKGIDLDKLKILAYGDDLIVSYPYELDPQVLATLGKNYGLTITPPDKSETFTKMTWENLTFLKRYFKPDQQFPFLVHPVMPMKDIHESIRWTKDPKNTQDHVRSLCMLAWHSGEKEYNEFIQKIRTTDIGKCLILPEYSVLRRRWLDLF", "UniProt O15151, sequence (whole entry, looked up)": "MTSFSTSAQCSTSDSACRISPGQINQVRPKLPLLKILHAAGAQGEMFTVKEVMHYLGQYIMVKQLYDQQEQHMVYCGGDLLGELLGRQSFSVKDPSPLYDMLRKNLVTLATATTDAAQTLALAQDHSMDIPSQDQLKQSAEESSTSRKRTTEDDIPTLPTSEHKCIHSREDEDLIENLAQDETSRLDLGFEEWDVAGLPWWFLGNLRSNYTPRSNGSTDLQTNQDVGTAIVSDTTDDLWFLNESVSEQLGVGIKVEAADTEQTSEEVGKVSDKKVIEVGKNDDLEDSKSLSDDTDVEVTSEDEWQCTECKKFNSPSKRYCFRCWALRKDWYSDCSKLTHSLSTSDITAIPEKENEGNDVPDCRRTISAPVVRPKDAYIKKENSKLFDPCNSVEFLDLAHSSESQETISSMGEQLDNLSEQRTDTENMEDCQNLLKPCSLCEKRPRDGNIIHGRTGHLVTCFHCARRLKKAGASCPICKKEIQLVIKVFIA", "UniProt P35372, sequence (whole entry, looked up)": "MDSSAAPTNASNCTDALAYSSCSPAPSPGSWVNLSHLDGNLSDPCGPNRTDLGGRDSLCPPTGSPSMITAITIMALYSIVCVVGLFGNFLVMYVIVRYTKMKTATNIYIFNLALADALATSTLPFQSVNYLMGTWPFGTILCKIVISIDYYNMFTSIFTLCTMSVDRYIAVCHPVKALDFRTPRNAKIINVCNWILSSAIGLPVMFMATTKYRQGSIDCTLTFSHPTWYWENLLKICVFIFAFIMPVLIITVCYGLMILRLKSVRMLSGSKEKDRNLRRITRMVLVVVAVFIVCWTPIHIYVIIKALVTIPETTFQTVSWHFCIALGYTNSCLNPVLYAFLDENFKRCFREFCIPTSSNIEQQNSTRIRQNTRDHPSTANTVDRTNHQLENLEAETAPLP", "UniProt P09237, sequence (whole entry, looked up)": "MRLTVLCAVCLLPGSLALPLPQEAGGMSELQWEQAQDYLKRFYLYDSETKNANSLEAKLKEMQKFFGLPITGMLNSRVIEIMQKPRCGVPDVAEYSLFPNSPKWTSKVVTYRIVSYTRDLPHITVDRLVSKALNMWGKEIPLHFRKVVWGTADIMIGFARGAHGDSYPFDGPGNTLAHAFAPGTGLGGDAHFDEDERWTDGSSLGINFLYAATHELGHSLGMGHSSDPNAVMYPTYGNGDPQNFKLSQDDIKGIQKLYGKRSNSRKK", "UniProt Q9NTG7, sequence (whole entry, looked up)": "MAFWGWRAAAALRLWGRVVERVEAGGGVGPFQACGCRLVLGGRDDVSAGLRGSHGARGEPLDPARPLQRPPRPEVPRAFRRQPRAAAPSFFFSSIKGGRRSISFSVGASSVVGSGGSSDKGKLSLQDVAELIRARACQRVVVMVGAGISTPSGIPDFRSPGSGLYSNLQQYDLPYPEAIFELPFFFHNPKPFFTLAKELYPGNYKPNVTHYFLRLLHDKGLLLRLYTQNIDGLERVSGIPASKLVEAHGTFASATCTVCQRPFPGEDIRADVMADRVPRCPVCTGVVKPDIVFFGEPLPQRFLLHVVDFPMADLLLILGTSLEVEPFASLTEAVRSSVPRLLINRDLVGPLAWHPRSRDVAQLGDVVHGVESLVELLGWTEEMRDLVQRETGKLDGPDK", "UniProt P08684, sequence (whole entry, looked up)": "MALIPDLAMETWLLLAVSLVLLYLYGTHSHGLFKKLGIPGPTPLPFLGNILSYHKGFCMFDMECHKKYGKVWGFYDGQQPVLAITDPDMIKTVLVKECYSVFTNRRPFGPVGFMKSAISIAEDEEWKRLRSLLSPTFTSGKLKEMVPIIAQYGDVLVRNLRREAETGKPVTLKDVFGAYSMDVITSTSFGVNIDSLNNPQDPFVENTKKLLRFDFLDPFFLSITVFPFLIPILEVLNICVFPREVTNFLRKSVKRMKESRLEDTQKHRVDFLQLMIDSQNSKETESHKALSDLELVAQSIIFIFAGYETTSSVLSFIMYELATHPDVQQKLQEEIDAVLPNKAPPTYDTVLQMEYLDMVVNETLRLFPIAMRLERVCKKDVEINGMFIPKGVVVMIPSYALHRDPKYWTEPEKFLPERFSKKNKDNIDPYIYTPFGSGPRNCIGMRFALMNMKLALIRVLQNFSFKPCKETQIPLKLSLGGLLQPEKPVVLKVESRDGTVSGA"}
{"Compound": "O=C(O)CCn1c(=O)oc2cc(Cl)c(Cl)cc21", "target": "5-hydroxytryptamine receptor 1B (HTR1B, Homo sapiens, UniProt P28222)", "assay": "antagonist", "setting": "median value", "IC50": "> 100000 nM"}
{"Compound": "CC(C)C[C@H]1CNC(=O)N2C[C@H](C[C@H]2C(N)=O)SCC(=O)NCCNC(=O)CSC[C@H](NC(=O)[C@H](Cc2ccccc2)NC(=O)[C@H](CO)NC(=O)[C@@H](N)[C@@H](C)O)C(=O)N[C@@H](CCC(=O)O)C(=O)N[C@@H](Cc2ccc(O)cc2)C(=O)N[C@@H](Cc2c[nH]c3ccccc23)C(=O)N[C@@H](C)C(=O)N[C@@H](CC(C)C)CNC(=O)N1", "target": "Protein Mdm4, with p53 (MDM4, Homo sapiens, UniProt O15151)", "assay": "p53 binding, TR-FRET", "IC50": "119 nM"}
{"Compound": "CC[C@H](C)[C@@H]1NC(=O)[C@@H]2CCCN2C(=O)[C@H](CC(=O)O)NC(=O)[C@@H](NC(=O)[C@@H](NC(=O)[C@H](CO)NC(=O)[C@@H](N)Cc2ccc(O)cc2)[C@@H](C)O)CSC(=O)[C@H](CCSC)NC1=O", "target": "Accessory gene regulator protein A (Staphylococcus aureus, UniProt O33587)", "assay": "inhibitor", "IC50": "> 10000 nM"}
{"Compound": "N=C(N)Nc1cccc(NC(P(=O)(O)O)P(=O)(O)O)c1", "target": "ppk (Escherichia coli, UniProt P0A7B1)", "assay": "enzyme activity, inhibitor", "IC50": "468000 nM"}
{"Compound": "CNC(=S)NCCCC[C@H](NC(=O)CCc1ccccc1)C(=O)N[C@@H](CCCNC(=N)N)C(=O)N[C@@H](CC1CCCCC1)C(=O)N[C@H](CCCCN)C(=O)N[C@@H](CC1CCCCC1)C(=O)N[C@H](CCCNC(=N)N)C(=O)N[C@@H](CC1CCCCC1)C(N)=O", "target": "NAD-dependent protein deacetylase sirtuin-3, mitochondrial (SIRT3, Homo sapiens, UniProt Q9NTG7)", "assay": "enzyme activity, inhibitor, fluorescence", "IC50": "1110 nM"}
{"Compound": "CC(C)[C@@H]1NC(=O)[C@H](Cc2ccc(O)cc2)NC(=O)[C@H](Cc2ccccc2)NC(=O)[C@H]([C@@H](C)O)NC(=O)[C@@H](Cc2ccc(O)cc2)NC(=O)CSC[C@H](C(=O)NCCOCCOCCOCCOCCOCCOCCC(N)=O)NC(=O)[C@H](C)NC(=O)[C@H](CO)NC(=O)[C@@H]2CCC[C@@H]2NC(=O)[C@H](Cc2c[nH]cn2)NC(=O)[C@H](CCCNC(=N)N)NC(=O)[C@H](Cc2ccc(O)cc2)NC(=O)[C@H]([C@@H](C)O)NC(=O)[C@H](Cc2ccccc2)NC(=O)[C@H]([C@@H](C)O)NC(=O)[C@H](Cc2ccc(O)cc2)NC(=O)[C@H](Cc2ccccc2)NC1=O", "target": "Matrilysin (MMP7, Homo sapiens, UniProt P09237)", "assay": "enzyme activity, inhibitor, fluorogenic", "setting": "37 °C, first phase of biphasic fit, with: FS-6 substrate 10 µM", "IC50": "180 nM"}
{"Compound": "O=C(Oc1ccc([N+](=O)[O-])cc1)N1CCN(Cc2cccc(Oc3ccccc3)c2)CC1", "target": "Fatty-acid amide hydrolase 1 (Faah, Rattus norvegicus, UniProt P97612)", "assay": "enzyme activity, inhibitor", "IC50": "12.1 nM"}
{"Compound": "CN1CC[C@]23c4c5ccc(O)c4C[C@H]2[C@@H](O)C=C[C@H]3[C@H]1C5", "target": "Mu-type opioid receptor (OPRM1, Homo sapiens, UniProt P35372)", "assay": "cell-free assay", "IC50": "18 nM"}
{"Compound": "O=C1CCN(/C=C/S(=O)(=O)F)CC1", "target": "Neutrophil elastase (ELANE, Homo sapiens, UniProt P08246)", "assay": "enzyme activity, inhibitor", "setting": "10 min preincubation, pH 7.4, 25 °C, 0.05% Nonidet P-40, with: AAPV-AMC substrate", "IC50": "> 200000 nM"}
{"Compound": "CCCCCCCCCCCCCCN(O)C(=O)CCCCC[C@@H]1NC(=O)[C@H]2CCCN2C(=O)[C@H](Cc2ccccc2)NC(=O)[C@H](Cc2ccccc2)NC1=O", "target": "Histone deacetylase 11 (HDAC11, Homo sapiens, UniProt Q96DB2)", "assay": "enzyme activity, inhibitor, fluorescence", "IC50": "3.8 nM"}
{"Compound": "CCc1nnc(-c2c(OC)cc(-c3cnc4cc(-c5cnn(C)c5)ccn34)cc2OC)o1", "target": "Cytochrome P450 3A4 (CYP3A4, Homo sapiens, UniProt P08684)", "assay": "enzyme activity, inhibitor", "IC50": "> 10000 nM"}
{"Compound": "O=C(CN1C(=O)C2(CCN(C(=O)c3ncc4[nH]ncc4n3)CC2)c2c(Br)cccc21)NCC(F)(F)F", "target": "Discoidin domain-containing receptor 2 (DDR2, Homo sapiens, UniProt Q16832)", "assay": "ligand displacement", "IC50": "13400 nM"}
{"Compound": "CCC1c2ccsc2CCN1C(=O)c1nnn(C2CCNCC2)c1C (racemic)", "target": "Genome polyprotein, 3C protease (rhinovirus B14, UniProt P03303)", "assay": "protease activity, inhibitor, SAMDI-MS", "IC50": "> 100000 nM"}
